Measured values of several laboratories.
Parts stem from different laboratories: compare values within a part only. ± marks the error that the study gave.
UniProt Q9UQM7, sequence (whole entry, looked up): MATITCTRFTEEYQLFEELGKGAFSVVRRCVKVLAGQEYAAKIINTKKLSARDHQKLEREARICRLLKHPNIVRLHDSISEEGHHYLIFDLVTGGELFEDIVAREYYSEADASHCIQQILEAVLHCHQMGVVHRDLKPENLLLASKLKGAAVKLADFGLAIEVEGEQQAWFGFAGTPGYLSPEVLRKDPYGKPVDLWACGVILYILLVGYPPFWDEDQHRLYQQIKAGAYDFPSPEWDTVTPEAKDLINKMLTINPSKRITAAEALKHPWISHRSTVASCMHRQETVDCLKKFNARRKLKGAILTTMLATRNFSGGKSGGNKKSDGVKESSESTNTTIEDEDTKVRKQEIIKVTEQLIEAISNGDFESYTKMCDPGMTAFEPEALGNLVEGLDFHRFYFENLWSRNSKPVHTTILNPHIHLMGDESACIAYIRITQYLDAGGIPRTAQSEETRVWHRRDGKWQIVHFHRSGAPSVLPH
UniProt O75417, sequence (whole entry, unmodified, looked up): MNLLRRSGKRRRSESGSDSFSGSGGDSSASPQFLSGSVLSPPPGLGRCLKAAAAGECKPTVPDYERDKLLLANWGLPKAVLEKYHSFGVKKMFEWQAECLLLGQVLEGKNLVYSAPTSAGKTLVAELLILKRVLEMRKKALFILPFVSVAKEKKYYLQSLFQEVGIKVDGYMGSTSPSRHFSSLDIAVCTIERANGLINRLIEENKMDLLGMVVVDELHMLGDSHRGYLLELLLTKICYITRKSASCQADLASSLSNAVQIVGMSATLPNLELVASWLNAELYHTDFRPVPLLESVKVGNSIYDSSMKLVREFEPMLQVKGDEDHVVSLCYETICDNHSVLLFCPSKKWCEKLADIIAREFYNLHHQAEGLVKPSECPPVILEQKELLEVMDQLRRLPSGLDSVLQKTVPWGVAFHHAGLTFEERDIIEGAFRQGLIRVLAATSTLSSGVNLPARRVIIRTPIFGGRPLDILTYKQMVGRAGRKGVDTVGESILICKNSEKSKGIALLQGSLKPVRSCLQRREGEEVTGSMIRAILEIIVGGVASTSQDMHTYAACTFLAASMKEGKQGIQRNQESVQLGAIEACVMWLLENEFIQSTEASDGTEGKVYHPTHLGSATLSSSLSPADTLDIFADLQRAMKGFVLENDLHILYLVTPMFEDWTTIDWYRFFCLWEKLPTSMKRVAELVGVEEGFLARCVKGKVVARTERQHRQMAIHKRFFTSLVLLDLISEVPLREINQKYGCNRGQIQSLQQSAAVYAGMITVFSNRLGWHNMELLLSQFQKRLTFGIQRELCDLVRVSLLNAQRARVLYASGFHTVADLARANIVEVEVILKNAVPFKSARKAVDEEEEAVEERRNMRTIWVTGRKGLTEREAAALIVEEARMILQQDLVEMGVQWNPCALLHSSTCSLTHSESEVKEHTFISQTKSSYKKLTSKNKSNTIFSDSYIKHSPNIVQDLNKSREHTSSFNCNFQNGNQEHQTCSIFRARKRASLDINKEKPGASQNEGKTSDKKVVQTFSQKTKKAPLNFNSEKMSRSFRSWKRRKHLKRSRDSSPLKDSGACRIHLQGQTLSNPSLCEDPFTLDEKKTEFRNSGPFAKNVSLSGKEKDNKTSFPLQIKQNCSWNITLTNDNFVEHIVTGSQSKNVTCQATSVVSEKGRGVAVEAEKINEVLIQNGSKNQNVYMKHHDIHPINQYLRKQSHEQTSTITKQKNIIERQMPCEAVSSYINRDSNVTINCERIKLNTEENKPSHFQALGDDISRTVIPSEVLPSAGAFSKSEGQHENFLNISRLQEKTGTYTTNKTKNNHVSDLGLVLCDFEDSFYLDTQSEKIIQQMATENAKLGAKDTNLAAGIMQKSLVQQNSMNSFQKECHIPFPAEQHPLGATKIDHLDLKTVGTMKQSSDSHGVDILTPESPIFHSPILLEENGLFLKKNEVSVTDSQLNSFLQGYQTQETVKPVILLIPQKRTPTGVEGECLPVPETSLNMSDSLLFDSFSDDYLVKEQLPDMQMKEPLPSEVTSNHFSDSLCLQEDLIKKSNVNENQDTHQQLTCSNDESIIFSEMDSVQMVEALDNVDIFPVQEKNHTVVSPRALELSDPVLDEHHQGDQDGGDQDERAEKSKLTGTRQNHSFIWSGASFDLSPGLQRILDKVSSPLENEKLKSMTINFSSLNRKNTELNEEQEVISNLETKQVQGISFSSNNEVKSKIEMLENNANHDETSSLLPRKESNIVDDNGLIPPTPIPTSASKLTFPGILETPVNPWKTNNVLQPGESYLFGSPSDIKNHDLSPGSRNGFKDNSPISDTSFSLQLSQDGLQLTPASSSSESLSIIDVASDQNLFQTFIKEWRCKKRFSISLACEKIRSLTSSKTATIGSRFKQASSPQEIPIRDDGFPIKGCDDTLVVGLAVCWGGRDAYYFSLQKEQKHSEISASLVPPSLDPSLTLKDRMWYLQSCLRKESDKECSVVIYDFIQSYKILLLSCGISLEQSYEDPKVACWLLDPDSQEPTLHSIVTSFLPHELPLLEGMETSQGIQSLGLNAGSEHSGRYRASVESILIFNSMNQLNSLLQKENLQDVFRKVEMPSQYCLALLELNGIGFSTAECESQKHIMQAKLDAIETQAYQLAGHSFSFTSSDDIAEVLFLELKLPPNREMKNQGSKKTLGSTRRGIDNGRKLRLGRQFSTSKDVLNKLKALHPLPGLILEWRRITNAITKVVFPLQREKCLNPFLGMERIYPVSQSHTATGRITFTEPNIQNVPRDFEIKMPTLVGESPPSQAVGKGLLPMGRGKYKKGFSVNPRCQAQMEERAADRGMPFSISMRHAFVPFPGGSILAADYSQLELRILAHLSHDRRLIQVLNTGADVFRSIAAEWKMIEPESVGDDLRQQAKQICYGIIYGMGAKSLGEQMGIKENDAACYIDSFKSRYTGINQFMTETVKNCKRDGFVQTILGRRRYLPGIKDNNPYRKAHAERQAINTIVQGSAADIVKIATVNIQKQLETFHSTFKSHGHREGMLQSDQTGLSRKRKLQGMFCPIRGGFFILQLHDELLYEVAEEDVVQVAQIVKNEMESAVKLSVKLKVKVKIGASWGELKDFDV

Sample 1
Target: Replicase polyprotein 1ab, polymerase (rep, Severe acute respiratory syndrome coronavirus 2, UniProt P0DTD1)
Effect on: enzyme activity
Mode: inhibitor
Tested at: 20 µM
Structure (SMILES) | inhibition [%]
CC(C)C(=O)SCCCCC[C@H](NC(=O)OC(C)(C)C)C(=O)NC12CC3CC(CC(C3)C1)C2 | -5.52
NC[C@@H]1O[C@H](O[C@H]2[C@@H](O)[C@H](O[C@@H]3[C@@H](O)[C@H](N)C[C@H](N)[C@H]3O[C@H]3O[C@H](CO)[C@@H](O)[C@H](O)[C@H]3N)O[C@@H]2CO)[C@H](N)[C@@H](O)[C@@H]1O | -4.05
Cn1cc(C(=O)[C@@H]2CCc3[nH]cnc3C2)c2ccccc21 | 3.99
C[C@@H]1O[C@@H](Oc2c(-c3cc(O)c(O)c(O)c3)oc3cc(O)cc(O)c3c2=O)[C@H](O)[C@H](O)[C@H]1O | 50.1
NS(=O)(=O)c1ccc(C(=O)O)cc1 | -1
COC(=O)c1ccc2c(c1)nc(NC(=O)c1ccccc1)n2CCCc1ccccc1 | -4.38
CC(=O)O[C@@H]1CC[C@@]2(C)[C@@H](CC[C@]3(C)[C@@H]2C(=O)C=C2[C@@H]4[C@@H](C)[C@H](C)CC[C@]4(C)CC[C@]23C)[C@@]1(C)C(=O)O | -1
O=C1CCCC(=O)C1C(=O)c1ccc(C(F)(F)F)cc1[N+](=O)[O-] | 1.1

Further values, each from its own experiment
Structure (SMILES) | target or system | test | system | setting | how to read | quantity | value
C[C@H]1CCC/C=C/C2C[C@H](O)C[C@@]2(O)C/C=C/C(=O)O1 (stereo partly shown) | DNA polymerase theta, ATPase domain (POLQ, Homo sapiens, UniProt O75417) | enzyme activity, inhibitor |  | 77 µM | baseline: untreated | remaining activity | 105%
OC(c1cc(C(F)(F)F)nc2c(C(F)(F)F)cccc12)C1CCCCN1 (stereo not shown) | HEK-293T | pseudovirus infection, FDA-approved drug library screen | VSV pseudotyped with SARS-CoV-2 spike | 10 µM, 16 h | baseline: vehicle-treated | GFP-positive cells | 37.8%
O=C(NC(=O)c1c(F)cccc1F)Nc1cc(Cl)c(OC(F)(F)C(F)C(F)(F)F)cc1Cl (stereo not shown) | mouse MPNST tumor cells | high-content immunofluorescence imaging, item: nuclear SOX9 |  | 10 µM, 12 h, mean of 2 replicates | baseline: DMSO control, higher = more nuclear SOX9 | nuclear SOX9 intensity | 89.6 % of DMSO
C[C@@H]1O[C@@H](O[C@H]2CC[C@]3(C=O)[C@H]4CC[C@]5(C)[C@@H](C6=CC(=O)OC6)CC[C@]5(O)[C@@H]4CC[C@]3(O)C2)[C@H](O)[C@H](O)[C@H]1O | Calcium/calmodulin-dependent protein kinase type II subunit alpha (CAMK2A, Homo sapiens, UniProt Q9UQM7) | enzyme activity, inhibitor |  | 10 µM |  | inhibition | -3%
O=C(/C=C/c1ccc2ccc(C(F)(F)F)cc2n1)c1ccncc1 | Replicase polyprotein 1ab, main protease (rep, Severe acute respiratory syndrome coronavirus 2, UniProt P0DTD1) | enzyme activity, inhibitor |  | 20 µM, primary screen |  | inhibition | 52.4%
O=C(O)c1ccc(-c2cccc(/C=N/NC(=O)c3cc(O)c(O)c(O)c3)c2)cc1 | Gag-Pol polyprotein, reverse transcriptase A502G/D256G (gag-pol, Human immunodeficiency virus type 1 group M subtype B, UniProt P04585, A1089G/D843G) | RNase H activity, inhibitor | HIV-1 |  |  | IC50 | 4 ± 1.3 µM
COc1ccc(-n2nc(C(F)(F)F)cc2-c2ccc(Cl)cc2)cc1 | mouse MPNST tumor cells | high-content nuclear imaging, item: cell number |  | 10 µM, 12 h, mean of 2 replicates | baseline: plate mean, higher = more cells | nuclei count | 0.484 z-score
Cn1c(=O)ccc2ccc(F)c(CCNC[C@H]3CN(c4cnc5c(n4)NC(=O)CO5)C(=O)O3)c21 | Yersinia pestis |  |  |  |  | MIC90 | < 0.015 µg/mL

Some of these lines once more (sample 1):
Structure (SMILES) | inhibition [%]
NC[C@@H]1O[C@H](O[C@H]2[C@@H](O)[C@H](O[C@@H]3[C@@H](O)[C@H](N)C[C@H](N)[C@H]3O[C@H]3O[C@H](CO)[C@@H](O)[C@H](O)[C@H]3N)O[C@@H]2CO)[C@H](N)[C@@H](O)[C@@H]1O | -4.05
C[C@@H]1O[C@@H](Oc2c(-c3cc(O)c(O)c(O)c3)oc3cc(O)cc(O)c3c2=O)[C@H](O)[C@H](O)[C@H]1O | 50.1
